Assay results from different studies.
Compare with care: the assays were run in different laboratories. “And” joins repeats or separate records; there may be more than shown. ± gives the spread as reported.
Chain of UniProt P35030 (whole entry, unmodified, looked up): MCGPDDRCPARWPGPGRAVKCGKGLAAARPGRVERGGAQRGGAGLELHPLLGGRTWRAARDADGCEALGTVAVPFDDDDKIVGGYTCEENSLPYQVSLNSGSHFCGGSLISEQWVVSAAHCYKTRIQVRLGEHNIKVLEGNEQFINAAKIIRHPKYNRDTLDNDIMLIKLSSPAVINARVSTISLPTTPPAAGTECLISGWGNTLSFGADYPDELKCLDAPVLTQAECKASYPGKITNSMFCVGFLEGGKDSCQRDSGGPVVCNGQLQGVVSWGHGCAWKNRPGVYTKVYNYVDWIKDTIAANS

SMILES | target or system | test | test system | setting | how to read | measurement | result
CN1CCC[C@]1(C)/C=C/S(=O)(=O)NC(=O)Nc1c2c(cc3c1CCC3)CCC2 | – | – | human, whole blood ex vivo | 50 mg twice daily, day 19, 108 h, multiple ascending dose, added: LPS and ATP | – | IL-1β inhibition | -0.5%
COC1OC(C)C(OC2OC(C)C(O)C(OC3OC(C)C(OC4OC(C)C(O)C(OC5OC(C)C(OC6OC(C)C(O)C(OC7OC(C)C(OC8OC(C)C(O)C(OC9OC(C)C(OC%10OC(C)C(O)C(OC%11OC(C)C(O)C(OS(=O)(=O)O)C%11OS(=O)(=O)O)C%10OS(=O)(=O)O)C(OS(=O)(=O)O)C9OS(=O)(=O)O)C8OS(=O)(=O)O)C(OS(=O)(=O)O)C7OS(=O)(=O)O)C6OS(=O)(=O)O)C(OS(=O)(=O)O)C5OS(=O)(=O)O)C4OS(=O)(=O)O)C(OS(=O)(=O)O)C3OS(=O)(=O)O)C2OS(=O)(=O)O)C(OS(=O)(=O)O)C1OS(=O)(=O)O (stereo not drawn) | – | – | human plasma | 128 µg/mL | – | thrombin time | 9.2 s
Nc1ncc(-c2cc(-c3cnn(CC(F)(F)F)c3)ncc2F)nc1C(=O)NC1CNCC(F)C1 (stereo not drawn) | LOK | KINOMEscan competition binding | – | 1 µM | baseline: DMSO control | remaining binding | 53%
O=C(N[C@@H](Cc1coc2ccccc12)B(O)O)[C@@H]1C[C@H]2CC[C@@H]1O2 | – | tumour growth | U266B1, mouse, U266B1 multiple myeloma xenograft | oral, 1 mg/kg daily | – | T/C | -81%
COC1CN([C@H]2CC[C@H]([C@@]3(C)Oc4c(Cl)cc(C(=O)NCc5c(SC)cc(C)[nH]c5=O)c(C)c4O3)CC2)C1 | – | RNA-seq, item: GCLC | human cancer patients, whole blood | dose not given, 24 h, PRC2 target gene | baseline: pretreatment sample | log2 fold change | 1.06
COc1cc(O)ccc1CCC(c1ccc(O)cc1)c1cc2c(c(C)c1O)OC(c1ccc(O)cc1)CC2 (mixture of isomers) | – | item: 5-HETE | human whole blood | 30 µM, added: Escherichia coli | – | amount | 661 ± 190 pg/mL blood
N#Cc1ccc(-c2cnc(C(=O)CCCCCCc3ccccc3)o2)nc1 | – | item: AEA, OEA, PEA | mouse, brain | i.p., dose not given, 6 h time course | – | duration of brain lipid amide elevation | > 6 h
O=C(N[C@@H](Cc1ccc(OCCCCC2CCNCC2)cc1)C(=O)O)c1nc2ccccc2o1.O=C(O)C(F)(F)F | – | platelet aggregation, inhibitor, impedance aggregometry | human, whole blood, 1:1 saline | 75 nM, 6 min, 37 °C, added: ADP 20 µM | higher = more aggregation | aggregation impedance AUC | 33 a.u. and 22.7 a.u. and 22.2 a.u. and 41.9 a.u. and 28.6 a.u.
COC1OC(C)C(OC2OC(C)C(O)C(OC3OC(C)C(OC4OC(C)C(O)C(OC5OC(C)C(OC6OC(C)C(O)C(OC7OC(C)C(OC8OC(C)C(O)C(OC9OC(C)C(OC%10OC(C)C(O)C(OS(=O)(=O)O)C%10OS(=O)(=O)O)C(OS(=O)(=O)O)C9OS(=O)(=O)O)C8OS(=O)(=O)O)C(OS(=O)(=O)O)C7OS(=O)(=O)O)C6OS(=O)(=O)O)C(OS(=O)(=O)O)C5OS(=O)(=O)O)C4OS(=O)(=O)O)C(OS(=O)(=O)O)C3OS(=O)(=O)O)C2OS(=O)(=O)O)C(OS(=O)(=O)O)C1OS(=O)(=O)O (stereo not drawn) | – | – | human plasma | 128 µg/mL | – | thrombin time | 10.3 ± 1.1 s
CCN(CC)CC#CCNc1ccnc2cc(Cl)ccc12 | Salmonella typhimurium | mini-Ames test | TA97a | 500.0 µg/well, with rat liver S9 | – | revertants | 0 revertants/well
Cc1ncsc1-c1ccc(C(C)NC(=O)C2CC(O)CN2C(=O)C(NC(=O)CCCCCCCCCCN2CCCC(Nc3ncc(Cl)c(Nc4ccccc4S(=O)(=O)C(C)C)n3)C2)C(C)(C)C)cc1 (stereo not drawn) | 22Rv1 | RNA-seq, item: ZNF135 mRNA | – | concentration not given | baseline: DMSO | log2 fold change | -3.06
C=Cc1c(C)c2cc3nc(c(CC(=O)[O-])c4[n-]c(cc5nc(cc1[n-]2)C(C)=C5CC)c(C)c4C(=O)[O-])C(CCC(=O)[O-])C3C.[Cu+2].[Na+].[Na+].[Na+] (stereo not drawn) | – | – | C57BL/6 mouse, female, cyclophosphamide-induced cystitis | dose not given | baseline: cyclophosphamide alone | IL-22 level | increased
S=C(S)OC1CC2CC1C1CCCC21 (stereo not drawn) | – | hot plate | male ICR-CD1 mice | icv, 75 µg/animal, 15 min | – | maximum possible effect | 13.4% and 16.4% and 20% and 17.2%
Cc1nc(-c2c[nH]c(C(=O)Nc3ncccc3O)c2)cs1 | Trypsin-3 (Homo sapiens, UniProt P35030, H275D) | enzyme activity, inhibitor, mixed model kinetics | – | – | – | Ki | 53.9 µM
C=C1CC[C@H](OCCCNC(=O)CCOCCOCCOCCOCCOCCOCCOCCOCCOCCOCCOCCOCCOCCOCCOCCOCCOCCOCCOCCOCCOCCOCCOCCOCCOCCOCCOCCOCCOCCOCCOCCOCCOCCOCCOCCOCCNC(=O)CCN2C(=O)CC(SC[C@H](NC(=O)[C@H](Cc3ccccc3)NC(=O)[C@H](CC(N)=O)NC(=O)[C@H](Cc3c[nH]cn3)NC(=O)[C@@H](NC(=O)[C@H](CC(=O)O)NC(=O)[C@H](CCC(N)=O)NC(=O)[C@H](CC(C)C)NC(=O)[C@H](CCCCN)NC(=O)[C@H](CCCCN)NC(=O)[C@H](CCCNC(=N)N)NC(=O)[C@H](CC(C)C)NC(=O)[C@H](Cc3c[nH]c4ccccc34)NC(=O)[C@H](CCC(=O)O)NC(=O)[C@@H](NC(=O)[C@H](CCCNC(=N)N)NC(=O)[C@H](CCC(=O)O)NC(=O)[C@H](CCSC)NC(=O)[C@H](CO)NC(=O)[C@H](CC(N)=O)NC(=O)[C@H](CC(C)C)NC(=O)[C@H](Cc3c[nH]cn3)NC(=O)[C@H](CCCCN)NC(=O)CNC(=O)[C@H](CC(C)C)NC(=O)[C@H](CC(N)=O)NC(=O)[C@H](Cc3c[nH]cn3)NC(=O)[C@H](CCSC)NC(=O)[C@H](CC(C)C)NC(=O)[C@H](CCC(N)=O)NC(=O)[C@@H](NC(=O)[C@H](CCC(=O)O)NC(=O)[C@H](CO)NC(=O)[C@@H](NC(=O)[C@@H](N)CO)C(C)C)[C@@H](C)CC)C(C)C)C(C)C)C(=O)O)C2=O)C/C1=C/C=C1\CCC[C@]2(C)[C@@H]([C@H](C)CCCC(C)(C)O)CC[C@@H]12 (stereo partly drawn) | – | – | male cynomolgus monkey, plasma | subcutaneous, 0.007 mg/kg, single dose | – | Cmax | 10.8 ng/mL
COc1ccc(C(=O)CCc2cc(C(CCc3ccc(O)cc3OC)c3ccc(O)cc3)c(O)cc2OC)cc1 (racemic) | – | – | human blood | 30 µM, added: A23187 | – | 5-HETE level | 4070 ± 1850 pg/mL
Cc1ccc(N(O)/N=N/c2ccc(S(=O)(=O)Nc3nccs3)cc2)cc1 | – | DPPH scavenging, absorbance | – | 20 µg/mL | – | inhibition | 24.9%
Cc1nn(-c2cccc(N)c2)c(=O)c2cnc(Nc3ccc(N4CCNCC4)cc3)nc12 | Receptor-type tyrosine-protein kinase FLT3 (FLT3, Homo sapiens, UniProt P36888) | kinase activity, inhibitor, SelectScreen kinase profiling | – | – | – | IC50 | > 10 µM
COC1OC(C)C(O)C(OC2OC(C)C(O)C(OS(=O)(=O)O)C2OS(=O)(=O)O)C1OS(=O)(=O)O (stereo not drawn) | – | – | human plasma | 128 µg/mL | baseline: control | thrombin time prolongation | 1 fold
CCCC[C@H](NC(=O)COCCOCCNC(=O)CN1CCN(CC(=O)O)CCN(CC(=O)O)CC1)C(=O)N[C@H]1CC(=O)NCCCC[C@@H](C(N)=O)NC(=O)[C@H](Cc2c[nH]c3ccccc23)NC(=O)[C@H](CCCNC(=N)N)NC(=O)[C@@H](Cc2ccccc2)NC(=O)[C@H](Cc2c[nH]cn2)NC1=O [technetium-99m labelled] | – | – | C57 mouse, stomach | intravenous, 0.037 MBq, 0.5 h | – | tissue uptake | 2.06 ± 0.65 %ID/g
COc1cc2c(NC3CCN(C(C)C)CC3)cc(N3CCOCC3)nc2cc1OCCCN1CCCC1 | – | TMT quantitative proteomics, item: GOT1 (cytoplasmic) | APP AD model mice, hippocampus | dose not given | – | normalised protein abundance | -0.00393 and -0.0224 and -0.0119 and -0.0206 and 0.015 and -0.02 and 0.0171 and 0.0417
COC1OC(C)C(OC2OC(C)C(OS(=O)(=O)O)C(OC3OC(C)C(OC4OC(C)C(OS(=O)(=O)O)C(OC5OC(C)C(OC6OC(C)C(OS(=O)(=O)O)C(OC7OC(C)C(OC8OC(C)C(OS(=O)(=O)O)C(OC9OC(C)C(OC%10OC(C)C(OS(=O)(=O)O)C(OC%11OC(C)C(OC%12OC(C)C(OS(=O)(=O)O)C(OS(=O)(=O)O)C%12O)C(OS(=O)(=O)O)C%11O)C%10O)C(OS(=O)(=O)O)C9O)C8O)C(OS(=O)(=O)O)C7O)C6O)C(OS(=O)(=O)O)C5O)C4O)C(OS(=O)(=O)O)C3O)C2O)C(OS(=O)(=O)O)C1O (stereo not drawn) | – | – | human plasma | 128 µg/mL | – | thrombin time | 10.4 ± 0.4 s
C=CC(=O)Nc1cccc(Cn2ncc3cnc(Nc4cnn(CCOC)c4)nc32)c1 | PFTK1 human | binding, KINOMEscan | – | 100 nM | lower = stronger binding | percent of control | 100%
COC1OC(C)C(OS(=O)(=O)O)C(OC2OC(C)C(OS(=O)(=O)O)C(OC3OC(C)C(OS(=O)(=O)O)C(OC4OC(C)C(OS(=O)(=O)O)C(OC5OC(C)C(OS(=O)(=O)O)C(OC6OC(C)C(OS(=O)(=O)O)C(OC7OC(C)C(OS(=O)(=O)O)C(OC8OC(C)C(OS(=O)(=O)O)C(OS(=O)(=O)O)C8OS(=O)(=O)O)C7OS(=O)(=O)O)C6OS(=O)(=O)O)C5OS(=O)(=O)O)C4OS(=O)(=O)O)C3OS(=O)(=O)O)C2OS(=O)(=O)O)C1OS(=O)(=O)O (stereo not drawn) | – | – | human plasma | 128 µg/mL | baseline: control | thrombin time prolongation | 1 fold
Nc1nc2cc(CC[C@H]3C[C@@H](n4ccc5c(N)ncnc54)[C@H](O)[C@@H]3O)ccc2cc1Br | – | – | NCI-H441 xenograft, mouse | 10.0 mg/kg/day, day 38 | – | tumour volume | 49 ± 5 mm3
COC1OC(C)C(OS(=O)(=O)O)C(OC2OC(C)C(OS(=O)(=O)O)C(OC3OC(C)C(OS(=O)(=O)O)C(OC4OC(C)C(OS(=O)(=O)O)C(OC5OC(C)C(OS(=O)(=O)O)C(OC6OC(C)C(OS(=O)(=O)O)C(OC7OC(C)C(OS(=O)(=O)O)C(OS(=O)(=O)O)C7O)C6O)C5O)C4O)C3O)C2O)C1O (stereo not drawn) | – | – | human plasma | 128 µg/mL | baseline: control | thrombin time prolongation | 0.9 fold
C=C(NC(=O)c1csc(-c2nc3c(cc2O)-c2nc(cs2)C(=O)NC(C(C)O)C(=O)NC(=C(C)OC)c2nc(cs2)C(=O)NC2c4nc(cs4)C(=O)NC(COC(=O)c4c5c6c(cccc6n4O)COC(=O)C(OC4CC(C)(O)C(N(C)C)C(C)O4)C2OC5)c2nc-3cs2)n1)C(N)=O (stereo not drawn) | – | – | cynomolgus monkey, plasma | intravenous, 9 mg/kg, single dose, infusion | – | Cmax | 34000 ng/mL

Repeated from above:
SMILES | target or system | test | test system | setting | how to read | measurement | result
COC1CN([C@H]2CC[C@H]([C@@]3(C)Oc4c(Cl)cc(C(=O)NCc5c(SC)cc(C)[nH]c5=O)c(C)c4O3)CC2)C1 | – | RNA-seq, item: GCLC | human cancer patients, whole blood | dose not given, 24 h, PRC2 target gene | baseline: pretreatment sample | log2 fold change | 1.06
Cc1nn(-c2cccc(N)c2)c(=O)c2cnc(Nc3ccc(N4CCNCC4)cc3)nc12 | Receptor-type tyrosine-protein kinase FLT3 (FLT3, Homo sapiens, UniProt P36888) | kinase activity, inhibitor, SelectScreen kinase profiling | – | – | – | IC50 | > 10 µM
COC1OC(C)C(OC2OC(C)C(O)C(OC3OC(C)C(OC4OC(C)C(O)C(OC5OC(C)C(OC6OC(C)C(O)C(OC7OC(C)C(OC8OC(C)C(O)C(OC9OC(C)C(OC%10OC(C)C(O)C(OS(=O)(=O)O)C%10OS(=O)(=O)O)C(OS(=O)(=O)O)C9OS(=O)(=O)O)C8OS(=O)(=O)O)C(OS(=O)(=O)O)C7OS(=O)(=O)O)C6OS(=O)(=O)O)C(OS(=O)(=O)O)C5OS(=O)(=O)O)C4OS(=O)(=O)O)C(OS(=O)(=O)O)C3OS(=O)(=O)O)C2OS(=O)(=O)O)C(OS(=O)(=O)O)C1OS(=O)(=O)O (stereo not drawn) | – | – | human plasma | 128 µg/mL | – | thrombin time | 10.3 ± 1.1 s
O=C(N[C@@H](Cc1coc2ccccc12)B(O)O)[C@@H]1C[C@H]2CC[C@@H]1O2 | – | tumour growth | U266B1, mouse, U266B1 multiple myeloma xenograft | oral, 1 mg/kg daily | – | T/C | -81%
